Experimental data gathered from unrelated publications.
Compare with care: the assays were run in different laboratories. “And” joins repeats or separate records; there may be more than shown. Numbers after ± are the reported error.
Luciferin 4-monooxygenase: Luciferin 4-monooxygenase (Photinus pyralis, UniProt P08659)
Sequence of UniProt P04775 (whole entry, looked up): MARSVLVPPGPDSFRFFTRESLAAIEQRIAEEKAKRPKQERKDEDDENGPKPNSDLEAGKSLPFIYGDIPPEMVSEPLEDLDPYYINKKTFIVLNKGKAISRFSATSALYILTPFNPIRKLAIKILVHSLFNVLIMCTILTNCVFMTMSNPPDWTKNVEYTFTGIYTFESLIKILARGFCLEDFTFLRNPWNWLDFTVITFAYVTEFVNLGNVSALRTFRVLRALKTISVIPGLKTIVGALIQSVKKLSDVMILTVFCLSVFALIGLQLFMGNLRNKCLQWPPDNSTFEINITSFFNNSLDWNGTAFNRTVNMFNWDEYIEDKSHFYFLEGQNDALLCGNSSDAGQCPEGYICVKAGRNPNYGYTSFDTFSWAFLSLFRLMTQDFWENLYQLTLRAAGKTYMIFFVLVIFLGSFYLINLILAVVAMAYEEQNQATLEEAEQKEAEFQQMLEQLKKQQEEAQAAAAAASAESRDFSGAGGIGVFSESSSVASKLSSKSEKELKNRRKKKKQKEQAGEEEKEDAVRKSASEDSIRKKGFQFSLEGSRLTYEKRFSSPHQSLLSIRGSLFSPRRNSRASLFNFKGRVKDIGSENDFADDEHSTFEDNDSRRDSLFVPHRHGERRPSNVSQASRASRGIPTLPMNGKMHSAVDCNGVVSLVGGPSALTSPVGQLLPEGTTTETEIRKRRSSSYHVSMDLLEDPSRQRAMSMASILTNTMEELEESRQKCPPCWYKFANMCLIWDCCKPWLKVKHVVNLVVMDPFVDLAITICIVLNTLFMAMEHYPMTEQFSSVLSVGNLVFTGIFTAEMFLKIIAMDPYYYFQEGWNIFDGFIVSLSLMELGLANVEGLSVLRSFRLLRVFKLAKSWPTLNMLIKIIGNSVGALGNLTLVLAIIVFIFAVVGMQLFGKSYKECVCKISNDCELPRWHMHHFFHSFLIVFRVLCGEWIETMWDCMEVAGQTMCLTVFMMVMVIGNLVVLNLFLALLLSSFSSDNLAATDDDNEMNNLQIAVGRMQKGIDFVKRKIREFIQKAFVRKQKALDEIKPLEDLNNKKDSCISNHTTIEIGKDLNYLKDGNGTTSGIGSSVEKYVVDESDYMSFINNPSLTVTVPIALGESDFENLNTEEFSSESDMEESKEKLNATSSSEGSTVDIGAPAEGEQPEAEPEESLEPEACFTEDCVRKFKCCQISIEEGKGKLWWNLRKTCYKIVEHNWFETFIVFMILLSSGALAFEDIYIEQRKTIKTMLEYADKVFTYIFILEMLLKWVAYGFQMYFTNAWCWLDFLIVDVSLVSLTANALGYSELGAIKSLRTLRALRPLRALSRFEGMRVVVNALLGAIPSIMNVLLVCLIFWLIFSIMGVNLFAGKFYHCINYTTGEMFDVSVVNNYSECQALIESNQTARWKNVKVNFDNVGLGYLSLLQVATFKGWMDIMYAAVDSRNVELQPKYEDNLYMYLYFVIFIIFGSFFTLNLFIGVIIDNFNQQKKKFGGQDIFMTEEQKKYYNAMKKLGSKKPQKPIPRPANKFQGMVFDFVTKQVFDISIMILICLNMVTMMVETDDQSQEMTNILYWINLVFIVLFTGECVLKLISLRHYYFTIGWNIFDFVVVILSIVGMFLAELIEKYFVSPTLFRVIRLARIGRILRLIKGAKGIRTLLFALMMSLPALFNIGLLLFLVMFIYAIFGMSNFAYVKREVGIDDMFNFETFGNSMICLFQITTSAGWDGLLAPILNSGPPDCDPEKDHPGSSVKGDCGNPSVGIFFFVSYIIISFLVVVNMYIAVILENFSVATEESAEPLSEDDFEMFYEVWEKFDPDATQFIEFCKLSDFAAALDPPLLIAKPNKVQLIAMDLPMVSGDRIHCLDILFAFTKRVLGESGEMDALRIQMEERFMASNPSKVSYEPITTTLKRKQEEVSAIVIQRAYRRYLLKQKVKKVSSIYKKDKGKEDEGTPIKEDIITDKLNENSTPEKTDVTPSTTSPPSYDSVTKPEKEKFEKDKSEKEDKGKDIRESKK
Sequence of UniProt P08659 (whole entry, looked up): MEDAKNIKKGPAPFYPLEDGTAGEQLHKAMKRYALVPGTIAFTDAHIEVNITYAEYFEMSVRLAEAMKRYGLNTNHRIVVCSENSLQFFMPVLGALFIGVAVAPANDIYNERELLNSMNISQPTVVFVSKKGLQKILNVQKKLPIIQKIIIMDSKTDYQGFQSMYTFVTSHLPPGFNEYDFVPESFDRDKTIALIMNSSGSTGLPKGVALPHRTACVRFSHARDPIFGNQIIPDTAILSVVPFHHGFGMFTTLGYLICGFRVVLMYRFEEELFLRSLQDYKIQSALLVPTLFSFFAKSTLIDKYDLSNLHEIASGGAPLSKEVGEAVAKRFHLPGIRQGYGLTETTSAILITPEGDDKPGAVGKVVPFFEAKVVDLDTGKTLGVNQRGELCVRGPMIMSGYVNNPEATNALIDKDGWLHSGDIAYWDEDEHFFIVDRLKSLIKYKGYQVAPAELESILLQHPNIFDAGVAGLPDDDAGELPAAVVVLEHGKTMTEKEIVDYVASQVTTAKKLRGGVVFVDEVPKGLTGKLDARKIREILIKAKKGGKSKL
Sequence of UniProt Q86Y07 (whole entry, looked up): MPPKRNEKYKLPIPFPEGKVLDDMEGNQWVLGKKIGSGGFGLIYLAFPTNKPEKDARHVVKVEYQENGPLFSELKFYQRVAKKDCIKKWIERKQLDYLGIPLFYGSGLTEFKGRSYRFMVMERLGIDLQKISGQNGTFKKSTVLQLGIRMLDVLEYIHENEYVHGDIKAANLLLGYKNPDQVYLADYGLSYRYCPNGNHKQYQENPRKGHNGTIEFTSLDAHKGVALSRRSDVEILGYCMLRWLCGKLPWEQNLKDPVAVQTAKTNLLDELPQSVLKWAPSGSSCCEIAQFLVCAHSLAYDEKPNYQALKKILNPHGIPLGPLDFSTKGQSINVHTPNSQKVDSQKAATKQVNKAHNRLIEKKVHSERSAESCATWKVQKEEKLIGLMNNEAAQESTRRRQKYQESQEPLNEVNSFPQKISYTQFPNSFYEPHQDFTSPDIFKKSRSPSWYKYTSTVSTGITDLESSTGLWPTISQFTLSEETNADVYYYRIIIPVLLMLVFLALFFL
Sequence of UniProt P23975 (whole entry, looked up): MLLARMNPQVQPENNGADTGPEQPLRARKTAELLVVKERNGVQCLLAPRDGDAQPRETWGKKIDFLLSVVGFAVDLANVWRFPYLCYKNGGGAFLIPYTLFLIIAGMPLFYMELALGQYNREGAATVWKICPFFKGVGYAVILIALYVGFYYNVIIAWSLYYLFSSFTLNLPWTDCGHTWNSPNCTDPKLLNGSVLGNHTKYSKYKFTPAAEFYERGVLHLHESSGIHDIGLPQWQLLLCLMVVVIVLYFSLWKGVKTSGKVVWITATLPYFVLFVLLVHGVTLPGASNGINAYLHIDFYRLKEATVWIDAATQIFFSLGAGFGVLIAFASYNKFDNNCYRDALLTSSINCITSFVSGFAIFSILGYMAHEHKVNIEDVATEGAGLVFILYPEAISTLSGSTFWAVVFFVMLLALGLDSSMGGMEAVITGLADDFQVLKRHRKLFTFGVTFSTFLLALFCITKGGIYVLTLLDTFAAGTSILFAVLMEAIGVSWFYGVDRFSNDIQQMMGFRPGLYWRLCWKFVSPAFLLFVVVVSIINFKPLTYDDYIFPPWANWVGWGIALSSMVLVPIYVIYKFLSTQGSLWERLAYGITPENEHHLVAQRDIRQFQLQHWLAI
Sequence of UniProt P30411 (whole entry, looked up): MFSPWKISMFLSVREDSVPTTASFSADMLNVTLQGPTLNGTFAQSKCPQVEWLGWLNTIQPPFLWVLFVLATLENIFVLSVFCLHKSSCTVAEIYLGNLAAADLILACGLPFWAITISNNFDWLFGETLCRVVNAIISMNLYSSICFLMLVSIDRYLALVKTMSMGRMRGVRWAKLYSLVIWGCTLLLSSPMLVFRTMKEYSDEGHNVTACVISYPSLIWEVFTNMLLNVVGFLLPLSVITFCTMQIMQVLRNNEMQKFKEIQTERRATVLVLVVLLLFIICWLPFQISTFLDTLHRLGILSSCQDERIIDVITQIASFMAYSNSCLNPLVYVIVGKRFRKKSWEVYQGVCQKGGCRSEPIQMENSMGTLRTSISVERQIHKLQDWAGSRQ
Sequence of UniProt P21728 (whole entry, looked up): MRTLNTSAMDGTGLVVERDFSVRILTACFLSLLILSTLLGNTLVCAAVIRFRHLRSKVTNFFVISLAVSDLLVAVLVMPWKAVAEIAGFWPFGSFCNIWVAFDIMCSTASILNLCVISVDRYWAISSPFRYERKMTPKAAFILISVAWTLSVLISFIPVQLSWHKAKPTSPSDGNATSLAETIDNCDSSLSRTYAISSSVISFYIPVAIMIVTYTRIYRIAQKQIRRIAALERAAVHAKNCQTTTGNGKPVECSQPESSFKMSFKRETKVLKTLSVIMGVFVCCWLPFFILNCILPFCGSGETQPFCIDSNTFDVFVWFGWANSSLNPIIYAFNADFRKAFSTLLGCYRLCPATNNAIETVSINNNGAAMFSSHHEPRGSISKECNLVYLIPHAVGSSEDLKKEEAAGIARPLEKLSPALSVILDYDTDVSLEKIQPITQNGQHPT
Sequence of UniProt P50897 (whole entry, looked up): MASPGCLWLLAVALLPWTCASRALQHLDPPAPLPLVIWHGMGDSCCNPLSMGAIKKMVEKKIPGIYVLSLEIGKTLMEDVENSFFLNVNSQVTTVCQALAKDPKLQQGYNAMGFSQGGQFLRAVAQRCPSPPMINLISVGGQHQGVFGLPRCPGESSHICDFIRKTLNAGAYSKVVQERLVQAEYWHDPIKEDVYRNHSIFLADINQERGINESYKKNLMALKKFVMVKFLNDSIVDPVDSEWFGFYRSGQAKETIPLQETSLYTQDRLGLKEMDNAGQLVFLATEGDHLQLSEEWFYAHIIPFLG

| Compound | tested on | test | system | conditions | inhibition |
| --- | --- | --- | --- | --- | --- |
| CN(O)N=Nc1ccc(S(=O)(=O)Nc2nccs2)cc1 | α-glucosidase, rat intestine | enzyme activity | – | 300 µg/mL, with: 4-nitrophenyl α-D-glucopyranoside | 60 ± 0.04% |
| Nc1ncn([C@H]2C[C@H](O)[C@@H](CO)O2)c(=O)n1 | THP-1 | pyroptotic LDH release | – | 2 µM, 40 min, with: LPS then nigericin | -12.6% |
| Clc1cccc(OC[C@H]2CN(CCN3CCc4ccccc43)CCO2)c1 | HTR1E (Homo sapiens, UniProt P28566) | radioligand binding | – | concentration not given, with: [3H]5-HT | -15.8% |
| CN(C(=O)n1cnc(-c2ccc[n+]([O-])c2)c1)C1CCCCC1 | Adra1a (Rattus norvegicus, UniProt P43140) | – | – | 10 µM | 5.46% |
| COc1ccc(F)cc1C(=O)NCc1ccc(-c2nn([C@@H](C)C(F)(F)F)c(N)c2C(N)=O)cc1 | STE20-related kinase adapter protein beta (Homo sapiens, UniProt Q9C0K7) | target engagement, competitive chemoproteomics | human PBMCs | 0.01 µM | 10.8% |
| Cc1ccc(C(=O)Nc2ccc3ccccc3c2)o1 | Scn2a (Rattus norvegicus, UniProt P04775) | ion current, inhibitor, whole-cell patch clamp | – | 10 µM | 4.56% and 0.77% and 3.26% and 6.3% and 6.67% |
| CC1CCCN(c2nc(C(=O)NC3CC3)cs2)C1 (stereo not shown) | Luciferin 4-monooxygenase | luciferase luminescence, inhibitor | cell-free | 50 µM, counter-screen | 39% |
| CCCCC1C(=O)N(c2ccccc2)N(c2ccccc2)C1=O | cyclooxygenase, rabbit | – | distal colon mucosa microsomes | 10 µM | 90% |
| CCN(O)N=Nc1ccc(S(=O)(=O)Nc2onc(C)c2C)cc1 | α-glucosidase, rat intestine | enzyme activity | – | 180 µg/mL, with: 4-nitrophenyl α-D-glucopyranoside | 37.5 ± 0.38% |
| O=C(NO)c1ccc(CN2CCCCc3ccccc32)c(F)c1 | SLC6A2 (Homo sapiens, UniProt P23975) | radioligand binding, radioligand displacement | – | 10 µM, mean of replicates | -21.8% |
| Cc1ncc([N+](=O)[O-])n1C | Palmitoyl-protein thioesterase 1 (Homo sapiens, UniProt P50897) | Spectrum Collection screen | – | concentration not given, with: substrate 20 µM | 65.4% |
| NC(Cc1ccc(Cl)cc1)C(=O)O (racemic) | THP-1 | pyroptotic LDH release | – | 2 µM, 40 min, with: LPS then nigericin | -15.5% |
| O=S(=O)(Nc1nccs1)c1ccc(N=NN(O)c2ccccc2)cc1 | α-glucosidase, rat intestine | enzyme activity | – | 180 µg/mL, with: 4-nitrophenyl α-D-glucopyranoside | 35 ± 0.041% |
| O=c1ccc2nc3ccc(O[C@@H]4O[C@H](CO)[C@H](O)[C@H](O)[C@H]4O)cc3oc-2c1 | Adhesin FmlH, lectin domain (Escherichia coli, UniProt Q1RBS0) | binding to desialylated mucin, ELISA competition | UPEC UTI89 | 100 µM | 80.4 ± 6.6% |
| CN1CCN(c2cc(-c3ccncc3)c(-c3ccc4ccccc4c3)nn2)CC1 | BDKRB2 (Homo sapiens, UniProt P30411) | antagonist, FLIPR | – | 10 µM | 4.4% |
| CC[C@@H]1[C@H](F)C(=O)N[C@@H]1COc1nccc2cc(C(N)=O)c(OC)cc12 | VRK2 (Homo sapiens, UniProt Q86Y07) | ATP-site probe binding, ActivX profiling | THP-1 cell lysate | 0.04 mM, Lys2 site | -6% |
| Cc1cc(NS(=O)(=O)c2ccc(N=NN(O)c3ccccc3)cc2)no1 | α-glucosidase, rat intestine | enzyme activity | – | 20 µg/mL, with: 4-nitrophenyl α-D-glucopyranoside | 5 ± 0.59% |
| COc1ccccc1N1CCN(CCCCN2CCc3ccccc3C2=O)CC1 | DRD1 (Homo sapiens, UniProt P21728) | radioligand binding | – | concentration not given, with: [3H]SCH23390 | 74% |
| CC(=O)CC(c1ccccc1)c1c(O)c2ccccc2oc1=O (stereo not shown) | Luciferin 4-monooxygenase | luciferase luminescence, inhibitor | cell-free | 50 µM, counter-screen | 11% |
| CCN1CCN(Cc2ccc(NC(=O)c3ccc(C)c(/C=C/c4cnc5[nH]ccc5c4OC)c3)cc2C(F)(F)F)CC1 | KSR1 (Homo sapiens, UniProt Q8IVT5) | – | A-375 | 0.5 µM | -19.7% |
| Cc1ccc(N(O)N=Nc2ccc(S(=O)(=O)Nc3onc(C)c3C)cc2)cc1 | α-glucosidase, rat intestine | enzyme activity | – | 120 µg/mL, with: 4-nitrophenyl α-D-glucopyranoside | 17.5 ± 0.013% |
| c1ccc2[nH]c(-c3cscn3)nc2c1 | Luciferin 4-monooxygenase | luciferase luminescence, inhibitor | cell-free | 50 µM, counter-screen | 96.2% |

Excerpt of the above:
| Compound | tested on | test | system | conditions | inhibition |
| --- | --- | --- | --- | --- | --- |
| O=c1ccc2nc3ccc(O[C@@H]4O[C@H](CO)[C@H](O)[C@H](O)[C@H]4O)cc3oc-2c1 | Adhesin FmlH, lectin domain (Escherichia coli, UniProt Q1RBS0) | binding to desialylated mucin, ELISA competition | UPEC UTI89 | 100 µM | 80.4 ± 6.6% |
| CN1CCN(c2cc(-c3ccncc3)c(-c3ccc4ccccc4c3)nn2)CC1 | BDKRB2 (Homo sapiens, UniProt P30411) | antagonist, FLIPR | – | 10 µM | 4.4% |
| CC[C@@H]1[C@H](F)C(=O)N[C@@H]1COc1nccc2cc(C(N)=O)c(OC)cc12 | VRK2 (Homo sapiens, UniProt Q86Y07) | ATP-site probe binding, ActivX profiling | THP-1 cell lysate | 0.04 mM, Lys2 site | -6% |
| Cc1cc(NS(=O)(=O)c2ccc(N=NN(O)c3ccccc3)cc2)no1 | α-glucosidase, rat intestine | enzyme activity | – | 20 µg/mL, with: 4-nitrophenyl α-D-glucopyranoside | 5 ± 0.59% |
